Measurements from different studies.
A part holds a random share of what one study measured.
Sequence of UniProt P0C264 (whole entry, looked up): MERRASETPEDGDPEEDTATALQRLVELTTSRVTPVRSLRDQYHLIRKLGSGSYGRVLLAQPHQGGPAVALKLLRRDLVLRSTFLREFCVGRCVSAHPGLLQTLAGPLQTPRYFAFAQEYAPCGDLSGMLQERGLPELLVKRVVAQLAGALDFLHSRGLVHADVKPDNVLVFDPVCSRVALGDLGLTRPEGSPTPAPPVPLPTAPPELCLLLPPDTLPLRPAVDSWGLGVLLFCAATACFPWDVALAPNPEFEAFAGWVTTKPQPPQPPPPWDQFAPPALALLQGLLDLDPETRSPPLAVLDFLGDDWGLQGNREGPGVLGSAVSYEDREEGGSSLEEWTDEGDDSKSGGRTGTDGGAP
Sequence of UniProt Q13188 (whole entry, looked up): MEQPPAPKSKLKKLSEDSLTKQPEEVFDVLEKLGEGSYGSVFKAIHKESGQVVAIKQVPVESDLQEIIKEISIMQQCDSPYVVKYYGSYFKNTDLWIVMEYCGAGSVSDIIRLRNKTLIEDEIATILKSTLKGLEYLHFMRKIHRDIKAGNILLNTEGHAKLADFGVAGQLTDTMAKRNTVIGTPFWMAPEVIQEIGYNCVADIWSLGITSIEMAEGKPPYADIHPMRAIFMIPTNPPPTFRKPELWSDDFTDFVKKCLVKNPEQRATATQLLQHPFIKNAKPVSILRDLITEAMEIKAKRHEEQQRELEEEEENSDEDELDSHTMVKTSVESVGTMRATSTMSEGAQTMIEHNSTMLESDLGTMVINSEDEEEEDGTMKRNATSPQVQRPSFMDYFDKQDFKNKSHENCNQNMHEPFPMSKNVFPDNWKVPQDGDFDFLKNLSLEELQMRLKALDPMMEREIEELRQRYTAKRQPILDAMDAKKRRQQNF
Sequence of UniProt Q9Y2I7 (whole entry, looked up): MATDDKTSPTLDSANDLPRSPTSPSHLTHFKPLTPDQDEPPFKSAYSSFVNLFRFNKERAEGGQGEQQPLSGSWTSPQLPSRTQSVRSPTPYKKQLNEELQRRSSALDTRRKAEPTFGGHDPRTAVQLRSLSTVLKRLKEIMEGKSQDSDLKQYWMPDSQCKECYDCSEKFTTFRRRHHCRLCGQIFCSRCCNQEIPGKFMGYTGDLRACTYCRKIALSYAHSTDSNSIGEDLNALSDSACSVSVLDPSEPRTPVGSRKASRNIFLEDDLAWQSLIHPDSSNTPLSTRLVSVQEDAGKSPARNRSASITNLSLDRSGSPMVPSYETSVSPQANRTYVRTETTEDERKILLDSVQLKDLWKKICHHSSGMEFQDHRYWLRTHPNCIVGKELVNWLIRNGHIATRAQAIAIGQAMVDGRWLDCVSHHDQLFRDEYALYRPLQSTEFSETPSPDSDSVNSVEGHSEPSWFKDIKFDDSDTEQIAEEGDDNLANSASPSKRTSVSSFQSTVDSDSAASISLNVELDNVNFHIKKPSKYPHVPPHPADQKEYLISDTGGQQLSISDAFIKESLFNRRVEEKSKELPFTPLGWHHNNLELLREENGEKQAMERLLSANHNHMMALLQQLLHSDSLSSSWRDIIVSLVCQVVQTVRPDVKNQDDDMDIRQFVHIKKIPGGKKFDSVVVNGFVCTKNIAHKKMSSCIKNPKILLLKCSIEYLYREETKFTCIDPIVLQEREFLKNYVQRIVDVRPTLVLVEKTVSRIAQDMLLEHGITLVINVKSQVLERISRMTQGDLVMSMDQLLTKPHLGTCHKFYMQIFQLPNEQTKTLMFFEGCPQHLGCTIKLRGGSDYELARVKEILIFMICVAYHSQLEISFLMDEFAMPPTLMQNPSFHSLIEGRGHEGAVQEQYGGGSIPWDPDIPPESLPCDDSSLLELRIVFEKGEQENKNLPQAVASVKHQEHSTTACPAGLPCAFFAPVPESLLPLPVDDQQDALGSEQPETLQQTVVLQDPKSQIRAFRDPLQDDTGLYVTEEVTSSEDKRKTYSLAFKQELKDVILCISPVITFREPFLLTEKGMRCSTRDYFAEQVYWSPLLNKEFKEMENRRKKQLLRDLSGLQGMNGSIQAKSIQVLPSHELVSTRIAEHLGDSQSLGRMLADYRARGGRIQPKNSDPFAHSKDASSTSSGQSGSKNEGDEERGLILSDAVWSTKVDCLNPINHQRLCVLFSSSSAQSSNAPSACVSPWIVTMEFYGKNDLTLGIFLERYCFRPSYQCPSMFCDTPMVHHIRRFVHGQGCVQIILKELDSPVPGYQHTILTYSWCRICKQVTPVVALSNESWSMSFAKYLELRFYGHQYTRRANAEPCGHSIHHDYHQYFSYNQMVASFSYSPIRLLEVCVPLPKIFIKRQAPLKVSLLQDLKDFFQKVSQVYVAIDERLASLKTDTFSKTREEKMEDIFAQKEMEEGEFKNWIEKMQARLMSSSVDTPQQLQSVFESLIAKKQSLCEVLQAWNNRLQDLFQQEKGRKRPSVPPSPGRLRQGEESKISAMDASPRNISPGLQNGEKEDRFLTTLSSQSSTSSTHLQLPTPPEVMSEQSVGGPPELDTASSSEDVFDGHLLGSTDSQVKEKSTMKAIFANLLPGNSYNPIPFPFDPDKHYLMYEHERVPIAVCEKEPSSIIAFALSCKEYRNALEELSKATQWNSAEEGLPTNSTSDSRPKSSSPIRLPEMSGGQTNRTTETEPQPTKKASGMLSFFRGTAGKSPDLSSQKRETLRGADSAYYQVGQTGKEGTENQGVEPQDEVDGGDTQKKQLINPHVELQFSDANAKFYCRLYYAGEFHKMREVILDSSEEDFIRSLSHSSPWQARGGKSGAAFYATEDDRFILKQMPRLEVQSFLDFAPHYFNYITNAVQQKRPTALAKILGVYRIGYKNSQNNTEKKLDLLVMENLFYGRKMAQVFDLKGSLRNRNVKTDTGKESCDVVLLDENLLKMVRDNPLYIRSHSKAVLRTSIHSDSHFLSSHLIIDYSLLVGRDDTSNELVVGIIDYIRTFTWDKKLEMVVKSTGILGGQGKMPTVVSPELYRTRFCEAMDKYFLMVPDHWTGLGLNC
Sequence of UniProt Q15208 (whole entry, looked up): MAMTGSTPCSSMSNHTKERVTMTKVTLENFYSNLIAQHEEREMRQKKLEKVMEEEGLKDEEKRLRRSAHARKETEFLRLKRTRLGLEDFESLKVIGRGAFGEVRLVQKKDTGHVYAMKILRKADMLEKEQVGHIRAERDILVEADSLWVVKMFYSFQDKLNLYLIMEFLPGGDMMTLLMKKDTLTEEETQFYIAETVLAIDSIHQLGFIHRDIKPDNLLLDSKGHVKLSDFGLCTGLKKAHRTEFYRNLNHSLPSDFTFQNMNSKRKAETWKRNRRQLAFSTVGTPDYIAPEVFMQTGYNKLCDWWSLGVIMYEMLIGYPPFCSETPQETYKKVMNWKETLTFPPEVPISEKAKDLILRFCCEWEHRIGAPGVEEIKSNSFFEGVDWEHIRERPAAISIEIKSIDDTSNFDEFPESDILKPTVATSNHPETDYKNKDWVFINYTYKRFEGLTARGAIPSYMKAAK
Sequence of UniProt Q15349 (whole entry, looked up): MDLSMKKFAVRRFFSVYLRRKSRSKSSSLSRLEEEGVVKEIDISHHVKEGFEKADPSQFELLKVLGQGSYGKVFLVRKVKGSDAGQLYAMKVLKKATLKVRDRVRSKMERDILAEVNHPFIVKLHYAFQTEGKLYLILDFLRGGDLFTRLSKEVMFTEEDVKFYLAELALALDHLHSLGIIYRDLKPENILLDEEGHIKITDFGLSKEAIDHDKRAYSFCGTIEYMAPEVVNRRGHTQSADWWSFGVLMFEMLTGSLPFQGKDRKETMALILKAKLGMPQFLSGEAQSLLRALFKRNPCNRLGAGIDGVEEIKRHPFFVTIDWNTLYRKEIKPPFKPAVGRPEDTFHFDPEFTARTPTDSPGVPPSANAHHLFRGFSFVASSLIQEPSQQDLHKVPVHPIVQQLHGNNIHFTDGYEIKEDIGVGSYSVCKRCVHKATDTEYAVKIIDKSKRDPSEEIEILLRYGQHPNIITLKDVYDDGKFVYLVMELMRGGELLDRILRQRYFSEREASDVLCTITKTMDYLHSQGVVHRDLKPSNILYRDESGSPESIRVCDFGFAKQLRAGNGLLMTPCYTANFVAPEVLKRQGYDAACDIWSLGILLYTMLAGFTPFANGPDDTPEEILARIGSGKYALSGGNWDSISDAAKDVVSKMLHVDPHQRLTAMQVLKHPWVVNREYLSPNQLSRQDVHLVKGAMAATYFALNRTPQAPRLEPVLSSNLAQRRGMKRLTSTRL

Series 1
Structure (SMILES): CC1=C(C#N)[C@@H](c2ccc3[nH]nc(C)c3c2)C(C#N)=C(c2ccc(Cl)cc2)N1
Method: competition with immobilised ligand
Concentration: 1 µM
| target | assay | remaining binding [%] |
| --- | --- | --- |
| RIPK1 (Homo sapiens, UniProt Q13546) | cell-free assay | 94.6 |
| CILK1 (Homo sapiens, UniProt Q9UPZ9) | binding | 76.2 |
| EGFR (Homo sapiens, UniProt P00533, G719S) | cell-free assay | 86.8 |
| KIT (Homo sapiens, UniProt P10721, T670I/V559D) | cell-free assay | 84.4 |
| Ribosomal protein S6 kinase alpha-2, C-terminal kinase domain (RPS6KA2, Homo sapiens, UniProt Q15349) | cell-free assay | 100 |
| CIT (Homo sapiens, UniProt O14578) | cell-free assay | 100 |
| PIKFYVE (Homo sapiens, UniProt Q9Y2I7) | cell-free assay | 100 |
| STK3 (Homo sapiens, UniProt Q13188) | cell-free assay | 100 |
| LATS2 (Homo sapiens, UniProt Q9NRM7) | cell-free assay | 100 |
| PIK3C2B (Homo sapiens, UniProt O00750) | cell-free assay | 100 |
| SBK3 (Homo sapiens, UniProt P0C264) | cell-free assay | 100 |
| Ribosomal protein S6 kinase alpha-3, N-terminal kinase domain (RPS6KA3, Homo sapiens, UniProt P51812) | cell-free assay | 78.1 |
| PKN1 (Homo sapiens, UniProt Q16512) | cell-free assay | 91.4 |
| CAMK2A (Homo sapiens, UniProt Q9UQM7) | cell-free assay | 100 |
| STK38 (Homo sapiens, UniProt Q15208) | cell-free assay | 92.3 |
| MAP4K5 (Homo sapiens, UniProt Q9Y4K4) | cell-free assay | 54 |

Series 2
Target: Tyrosine-protein kinase HCK (HCK, Homo sapiens, UniProt P08631)
Sequence of UniProt P08631 (whole entry, looked up): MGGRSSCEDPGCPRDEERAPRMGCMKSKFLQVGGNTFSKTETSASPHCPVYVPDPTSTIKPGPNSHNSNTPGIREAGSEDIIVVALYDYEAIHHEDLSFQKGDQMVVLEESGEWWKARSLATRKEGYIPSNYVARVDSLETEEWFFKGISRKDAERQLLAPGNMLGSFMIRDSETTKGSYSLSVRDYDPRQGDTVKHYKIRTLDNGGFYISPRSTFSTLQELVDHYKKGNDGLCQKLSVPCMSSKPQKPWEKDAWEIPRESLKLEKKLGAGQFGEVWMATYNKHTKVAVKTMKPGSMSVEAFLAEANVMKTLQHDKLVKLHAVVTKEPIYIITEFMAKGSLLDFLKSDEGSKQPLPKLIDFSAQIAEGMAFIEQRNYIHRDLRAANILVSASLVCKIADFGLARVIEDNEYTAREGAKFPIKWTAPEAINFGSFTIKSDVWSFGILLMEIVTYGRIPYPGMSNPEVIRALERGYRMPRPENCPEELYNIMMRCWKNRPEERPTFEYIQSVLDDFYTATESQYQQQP
Read-out: enzyme activity
Mode: inhibitor
Concentration: 0.5 µM
Reference: control
| Structure (SMILES) | remaining activity [%] |
| --- | --- |
| Nc1nc(Nc2ccc(S(N)(=O)=O)cc2)nn1C(=S)Nc1c(F)cccc1F | 37.9 |
| CNc1cc2c(Nc3cccc(Br)c3)ncnc2cn1 | 84.5 |
| O=C(O)/C=C/c1cc(Br)c(Br)c(Br)c1Br | 99.9 |
| CCCCc1c(-c2ccc(O)cc2)[nH]c2nccnc12 | 91.1 |
| Clc1ccc(Nc2nnc(Cc3ccncc3)c3ccccc23)cc1 | 89.5 |
| CCN(CC)CCCCN1c2ccccc2Oc2ccc(Cl)cc21 | 105 |
| O=Nc1c(-c2c(O)[nH]c3ccccc23)[nH]c2ccccc12 | 60.2 |
| N#C/C(=C(/N)SC1C=CC=CC1)c1cccc(C(O)c2ccncc2)c1 (stereo not shown) | 97.6 |
| CC(C)(C)c1nc2c3cc[nH]c(=O)c3c3cc(F)ccc3c2[nH]1 | 84.8 |
| c1cc(-c2cnn3cc(-c4ccc(OCCN5CCCCC5)cc4)cnc23)ccn1 | 62.6 |

Series 3
Species: human
Matrix: microsomes or S9
Concentration: 2 µM
Time: 0.5 h
| SMILES | remaining compound [%] |
| --- | --- |
| COc1c(C(C)(C)C)cc(C(=O)COc2ccc(O)cc2)c(O)c1I | > 99 |
| Cc1cc(Br)cc(C)c1NCc1nccn1CC(=O)NC(N)=O | 19.5 |
| CC(C)n1cc(CNS(=O)(=O)c2cc(F)cc(Cl)c2)nn1 | 22.7 |
| CC(=O)c1ccc2[nH]c3c(C(C)=O)cc(Cl)cc3c2c1 | > 99.9 |
| Cc1[nH]ncc1CCCNCc1cnc2c(c1)c(C#N)cn2C(C)(C)C | 66.9 |
| O=S(=O)(Cc1cc(F)ccc1F)NCCn1ccc(-c2ccsc2)n1 | 1.62 |
| COc1cc(=O)n(C)cc1C(=O)NC1CCCC1 | > 99 |
| O=C(CNC(=O)Cc1ccccc1)NCC(=O)OCc1cccc(C(=O)c2ccccc2)c1 | 7.74 |
| CC(=O)Nc1cc(O)nc2nc(-c3ccc(C(C)(C)C)cc3)nn12 | 62.2 |
| O=c1[nH]c2c(S(=O)(=O)c3ccc(Br)cc3)nnn2c2ccsc12 | 77.8 |
| Cc1cc(CO)cc(Oc2nc(Cl)nc(Cl)c2C(C)C)c1 | 22.5 |
| N#Cc1cc(NC(CCO)C2CCOCC2)nc2ccc(Cl)cc12 (stereo not shown) | 26.2 |

Series 4
SMILES: CC(C)n1cnc(-c2ccc(F)cc2)c1-c1ncc(C(=O)Nc2ccc(N3CCN(C)CC3)cc2)[nH]1
Method: phase 2a trial
Species: idiopathic pulmonary fibrosis patients
| assay | setting | adverse event incidence [%] |
| --- | --- | --- |
| refers to: ECG ST segment abnormal | dose not given, grade 3, all arms pooled | 0 |
| refers to: hepatic enzyme abnormal | 60 mg once daily, grade 3 | 0 |
| refers to: QRS axis abnormal | dose not given, grade 5, all arms pooled | 0 |
| refers to: weight decreased | 60 mg once daily, grade 4 | 0 |
| refers to: ventricular extrasystoles | dose not given, grade 1, all arms pooled | 0 |
| refers to: hydroxybutyrate dehydrogenase increased | 30 mg once daily, grade 5 | 0 |
| refers to: ventricular extrasystoles | 30 mg once daily, grade 2 | 0 |
| refers to: gingivitis | 60 mg once daily, grade 5 | 0 |

Some of these lines once more (series 2):
| Structure (SMILES) | remaining activity [%] |
| --- | --- |
| O=C(O)/C=C/c1cc(Br)c(Br)c(Br)c1Br | 99.9 |
| CNc1cc2c(Nc3cccc(Br)c3)ncnc2cn1 | 84.5 |
| N#C/C(=C(/N)SC1C=CC=CC1)c1cccc(C(O)c2ccncc2)c1 (stereo not shown) | 97.6 |
| CCN(CC)CCCCN1c2ccccc2Oc2ccc(Cl)cc21 | 105 |
